Published values collected from several papers.
Compare with care: the assays were run in different laboratories.

SMILES | system | setting | Tmax [h]
CN1CCC[C@]1(C)/C=C/S(=O)(=O)NC(=O)Nc1c2c(cc3c1CCC3)CCC2 | human, fasted, plasma | oral, 25 to 400 mg, single dose, median | 1 to 1.5
O=C(CCc1ccc(CNC(C(=O)OC2CCCC2)C2CCCCC2)cn1)NO (stereo not shown) | human | oral, multiple dose | < 1
CN1CCN(c2cc(-c3ccccc3CO)c(N(C)C(=O)C(C)(C)c3cc(C(F)(F)F)cc(C(F)(F)F)c3)cn2)CC1 | human, plasma | dose not given | 10 to 17
[2H]C([2H])([2H])NC(=O)c1ccc(N2C(=S)N(c3ccc(C#N)c(C(F)(F)F)c3)C(=O)C2(C)C)cc1F | human, male | oral, 160 mg, single dose, fed, median | 2
CC(=O)N[C@H](CC(=O)O)C(=O)N[C@H](Cc1c[nH]c2ccccc12)C(=O)N[C@H](Cc1ccccc1)C(=O)N[C@H](CCCCN)C(=O)N[C@H](C)C(=O)N[C@H](Cc1ccccc1)C(=O)N[C@H](Cc1ccc(O)cc1)C(=O)N[C@H](CC(=O)O)C(=O)N[C@H](CCCCN)C(=O)N[C@@H](C(=O)N[C@H](C)C(=O)N[C@H](CCC(=O)O)C(=O)N[C@H](CCCCN)C(=O)N[C@H](Cc1ccccc1)C(=O)N[C@H](CCCCN)C(=O)N[C@H](CCC(=O)O)C(=O)N[C@H](C)C(=O)N[C@H](Cc1ccccc1)C(N)=O)C(C)C | human, statin-treated high-risk CHD, both sexes, plasma | oral, 500 mg daily, day 13, median, detected subjects only | 1.27
O=C(CCc1ccc(CNC(C(=O)O)C2CCCCC2)cn1)NO (stereo not shown) | human, plasma | oral, 40 mg once daily, day 1, median | 1.01
CC(C)(O)c1ncc([S@](N)(=O)=NC(=O)Nc2c3c(cc4c2CCC4)CCC3)s1 | healthy human, fasted | oral, 100 mg single dose, capsule formulation | 2
Nc1ncnc(NCC2CCN(C(=O)C(O)CO)CC2)c1-c1ccc(Oc2ccccc2)cc1 (stereo not shown) | male humans, plasma | oral, 75 mg evobrutinib, metabolite | 1
CCc1cc(Nc2nc(-c3ccc(-n4cnc(C)c4)c(F)c3)cs2)c(C)cc1C | human, both sexes, plasma | oral, 400 mg once daily, day 14, multiple dose, geometric mean | 3.2
CC12CC(c3ccc(S(C)(=O)=O)cc3)C3=C4CCC(=O)C=C4CCC3C1CCC2(O)C(F)(F)C(F)(F)F (stereo not shown) | human, plasma | oral, 4 mg, dosed on day 4, median, with: itraconazole 200 mg/day | 2.25
Cn1c(=O)oc2ccc(-c3ccc(CC(C#N)NC(=O)C4CNCCCO4)c(F)c3)cc21 (stereo not shown) | human volunteers, plasma | 80 mg single dose, fasted, median | 0.75
CCc1c2c(nc3ccc(O)cc13)-c1cc3c(c(=O)n1C2)COC(=O)[C@]3(O)CC | human patients, plasma | intravenous, 32 mg/m^2 of parent drug | 0.94
CCCCCCCCCCCCCCCC(=O)N[C@@H](CCCCN)C(=O)N[C@@H](CCCCN)C(=O)N[C@@H](CO)C(=O)N[C@@H](CCCNC(=N)N)C(=O)N[C@@H](C)C(=O)N[C@@H](CC(C)C)C(=O)N[C@@H](Cc1ccccc1)C(N)=O | human, PCI patients, plasma | intravenous, dose not given, end of infusion | 2

Some of these lines once more:
SMILES | system | setting | Tmax [h]
CC(=O)N[C@H](CC(=O)O)C(=O)N[C@H](Cc1c[nH]c2ccccc12)C(=O)N[C@H](Cc1ccccc1)C(=O)N[C@H](CCCCN)C(=O)N[C@H](C)C(=O)N[C@H](Cc1ccccc1)C(=O)N[C@H](Cc1ccc(O)cc1)C(=O)N[C@H](CC(=O)O)C(=O)N[C@H](CCCCN)C(=O)N[C@@H](C(=O)N[C@H](C)C(=O)N[C@H](CCC(=O)O)C(=O)N[C@H](CCCCN)C(=O)N[C@H](Cc1ccccc1)C(=O)N[C@H](CCCCN)C(=O)N[C@H](CCC(=O)O)C(=O)N[C@H](C)C(=O)N[C@H](Cc1ccccc1)C(N)=O)C(C)C | human, statin-treated high-risk CHD, both sexes, plasma | oral, 500 mg daily, day 13, median, detected subjects only | 1.27
